Published values of several laboratories.
Compare with care: the assays were run in different laboratories. ± marks the error that the study gave.

Structure (SMILES)	cell line	assay	conditions	how to read	endpoint	value
Clc1ccc(NN=C(c2ccccc2)c2ccccn2)nc1	NCI-H358	microarray	concentration not given, 4 h	within time	number of downregulated genes	~20
C[C@H](NC(=O)CNC(=O)[C@H](CCC(=O)O)NC(=O)[C@H](CCC(=O)O)NC(=O)[C@H](CC(=O)O)NC(=O)[C@@H]1CCCN1C(=O)[C@H](Cc1ccccc1)NC(=O)[C@H](CS)NC(=O)[C@H](Cc1ccc(O)cc1)NC(=O)CCCNC(=O)CNC(=O)CNC(=O)[C@@H](C)NC(=O)CN)C(=O)N[C@@H](CS)C(=O)N[C@@H](Cc1ccc(O)cc1)C(N)=O [technetium-99m labelled]	SK-BR-3	–	24 h, 37 °C	–	internalization	18.4 ± 0.27%
Brc1ccc(Nc2nc(NN=Cc3c[nH]c4ccccc34)nc(N3CCOCC3)n2)cc1	SK-BR-3	Western blot, refers to: HER2, AKT, RAF-1, CDK4, CDK6	concentration not given, 12 h	–	protein level	decreased
COc1cccc(/C=N/NC(=O)COc2ccc(/C=N/NC(=O)C(C)c3ccc(CC(C)C)cc3)cc2)c1O (stereo not shown)	U87 MG	MTT	100 µM, 48 h	–	viability	27.6%
COc1ccc(NC(=O)COc2ccc(/C=C/C(C)=N/O)cc2OC)cc1	SH-SY5Y	flow cytometry	10 µM, with: amyloid-β 10 µM	–	cells expressing TNF-α	19.8%
O=c1[nH]c(N2CCC3(CC2)CN(CCO)c2cc(F)cc(F)c23)nc2c1CCCC2	COLO 320DM	BrdU incorporation	concentration not given, 48 h	–	DNA synthesis	decreased
COc1cc(CNC(=O)C[C@H](C)CCC=C(C)C)ccc1OCc1cn(-c2ccc(Cl)cc2Cl)nn1	T47D breast cancer cells	SRB	10 µM, 48 h	–	growth percent	60.2%
Cc1ccc(C(=O)N(Cc2ccc(C(F)(F)F)cc2)C2CC2)c(O)c1O	DLD-1	wound healing	20 µM, 24 and 48 h	–	cell migration	decreased
COc1cc(CN2CCN(c3cccc(Cl)c3)CC2)c2cc3[n+](cc2c1O)CCc1cc2c(cc1-3)OCO2	HeLa and MDCK	SRB	48 h	baseline: CC50 MDCK over IC50 HeLa	therapeutic index	36.3
CC(=O)OC[C@H]1O[C@@H](Sc2sc(C(=O)c3ccc(C)cc3)c(N)c2-c2nc3ccccc3s2)[C@H](OC(C)=O)[C@@H](OC(C)=O)[C@H]1OC(C)=O	EKVX	SRB	10 µM, 48 h	baseline: untreated	growth	68.3%
CC(=O)O[C@@H]1CC[C@@]2(C)C(CC[C@]3(C)C2C(=O)C=C2C4[C@@H](C)[C@H](C)CC[C@]4(C)CC[C@]23C)[C@@]1(C)C(=O)OCc1cn(-c2cc(=O)oc3ccccc23)nn1 (stereo partly shown)	RAW264.7	NO release, inhibitor, Griess	10 µM, 24 h, LPS-stimulated	–	inhibition	62.8%
FC(F)(F)c1ccnc(-c2cc(C(F)(F)F)ccn2)c1.FC(F)(F)c1ccnc(-c2cc(C(F)(F)F)ccn2)c1.[Cl-].[Cl-].[Ru+2].c1csc(-c2ccc(-c3ccc(-c4ccc(-c5nc6c7cccnc7c7ncccc7c6[nH]5)s4)s3)s2)c1	SK-MEL-28	cell viability, resazurin	visible light, hypoxia 1% O2	–	EC50	130 to 540 nM
COc1cc(CNC(=O)C[C@H](C)CCC=C(C)C)ccc1OCc1cn(-c2cccc(C(F)(F)F)c2)nn1	T47D breast cancer cells	SRB	10 µM, 48 h	–	growth percent	32.4%
Brc1ccc([C@H]2CN3CCSC3=N2)cc1	HEK293T expressing wild-type HIF-2α	refers to: HIF-2 target genes	10 µM, 24 h	–	mRNA level	decreased
COc1cc(CNC(=O)C[C@H](C)CCC=C(C)C)ccc1OCc1cn(-c2ccc(Br)cc2)nn1	DU-145	SRB	10 µM, 48 h	–	growth percent	92.7%
CN1CCc2cc(Nc3ncc(C(F)(F)F)c(NCc4cc[nH]n4)n3)ccc2C1	GL261	annexin V/PI	concentration not given	–	apoptotic cells	59.4%
COc1cc(CNC(=O)C[C@H](C)CCC=C(C)C)ccc1OCc1cn(-c2ccc(C#N)cc2)nn1	LOX IMVI	SRB	10 µM, 48 h	–	growth	72.6%
COc1cc(C(=O)N2CC[C@@H](O)[C@@H](N)C2)cc2nc(-c3cc4cccnc4n3CC3CC3)n(C)c12	human neutrophils	protein citrullination	concentration not given, with: ionomycin 5 µM	–	inhibition	39%
CC/C=C\C/C=C\C/C=C\C/C=C\C/C=C\C/C=C\CCC(=O)Nc1ccn(C2OC(CO)C(O)C2(F)F)c(=O)n1 (stereo not shown)	EKVX	NCI60 screen	–	–	TGI	20400 nM
CN1C(=O)N[C@H](Cc2c[nH]c3c(Cl)cccc23)C1=O	FADD-knockout Jurkat	necroptosis protection	16 h, with: TNFα 40 ng/mL	–	EC50	94 nM
Cc1cc(Nc2ccc(NC(=O)c3ccc(NC(=O)c4ccncc4)cc3)cc2)nc(N)n1	KG-1 with methylated CMV-luciferase	luciferase reporter gene	10 µM, 24 h	baseline: untreated	reporter reactivation	1 ± 0.1 fold
COc1cc(CNC(=O)C[C@H](C)CCC=C(C)C)ccc1OCc1cn(-c2ccccc2F)nn1	Hs-578T breast cancer cells	SRB	10 µM, 48 h	–	growth percent	39.5%
CC(C)Cc1ccc(C(C)C(=O)NN=Cc2ccc(OCC(=O)NN=Cc3cccc([N+](=O)[O-])c3)cc2)cc1 (stereo not shown)	U87 MG	MTT	100 µM, 48 h	–	viability	62.2%
COC[C@@H](C)N[C@H]1CC[C@H](Nc2cc(-c3cccc(NCC4(C#N)CCOCC4)n3)c(Cl)cn2)CC1	primary human tonsillar lymphocytes	cytotoxicity	72 h	–	EC50	~7.1 nM
Cc1ccc(C(C)C)cc1.N=C(N)Nc1nc2ccccc2s1.[Cl-].[Cl][Ru+]	BPH-1 and PC-3	MTT	24 h	baseline: IC50 BPH-1 over PC-3	selectivity ratio	1.4
CC(C)Cc1ccc(C(C)C(=O)N/N=C/c2ccc(OCC(=O)N/N=C/c3cccc(O)c3)cc2)cc1 (stereo not shown)	U87 MG	MTT	40 µM, 48 h	–	viability	109%
N[C@@H](CSC(F)(F)[18F])C(=O)O	C6	–	concentration not given, 30 min	–	protein incorporation	0.6%
CC(C)=CCc1c(OCC2OC2(C)C)ccc2ccc(=O)oc12 (stereo not shown)	COLO 320 (ABCB1-overexpressing, multidrug-resistant)	cell growth	150 µM starting, CI at ED50, with: doxorubicin, ratio 278.72:1	–	combination index	0.64

Structure (SMILES)	cell line	assay	conditions	how to read	endpoint	value
Cc1ccc(Nc2ncc3c(n2)N(C2CC2)C(=O)N(c2cc(NC(=O)c4cccc(C(F)(F)F)c4)ccc2C)C3)cn1	Huh-7	cell growth or viability, ATP luminescence	72 h	–	GI50	158 nM
O=C(Nc1cc(Cl)ccc1O)c1nn2c(C(F)(F)F)cc(-c3cc(Br)cs3)nc2c1Br	healthy donor PBMC	ELISA	2.5 µM, 48 h	–	IFN-gamma level	increased
CN1CCN(C(=O)N(CCCCCCC(=O)NO)c2ccc(-c3ccc4cnn(C)c4c3)cc2)CC1	MM1.S and RPMI-8226	immunoblot, refers to: BCL-xL	concentration not given, 24 h	–	protein level	decreased
CC(C)CNC(=O)[C@@H](NC[C@@H](O)[C@H](Cc1ccccc1)NC(=O)c1cc(C(=O)N[C@H](C)c2ccccc2)cc(N(C)S(C)(=O)=O)c1)[C@H](C)O	MIN6	Tmem27 processing, Western blot, refers to: Tmem27 C-terminal fragment	0.4 µM, with: DAPT	–	remaining C-terminal fragment	< 5%
O=C1NC(=O)C(=Cc2ccc(-c3cccc(C(F)(F)F)c3)o2)S1	PBMC	ELISA	10 µM, 48 h	baseline: untreated	IFN-γ increase	212%
CC(=O)OC[C@H]1O[C@@H](Sc2sc(C(=O)c3ccc(Br)cc3)c(N)c2-c2nc3ccccc3s2)[C@H](OC(C)=O)[C@@H](OC(C)=O)[C@@H]1OC(C)=O	OVCAR-5	SRB	10 µM, 48 h	baseline: untreated	growth	65.7%
CCCC[C@H](NC(=O)[C@H](Cc1ccccc1)NC(=O)[C@H](Cc1c[nH]cn1)NC(=O)CCNC(=O)[C@@H](NC(=O)[C@H](C)NC(=O)[C@H](Cc1c[nH]c2ccccc12)NC(=O)[C@H](CCC(N)=O)NC(=O)[C@H](N)Cc1ccc(O)cc1)C(C)C)C(N)=O	NCI-H1299 transfected with NMB receptor	Western blot, refers to: EGFR tyrosine phosphorylation	100 nM	baseline: untreated	phosphorylation fold increase	10.2 fold
O=[N+]([O-])c1c(Nc2cc(F)cc(Cl)c2)ccc2nonc12	Hep3B	refers to: HIF1A	1 or 10 µM	–	mRNA level	no effect
CC(=C(c1ccc(O)cc1)c1ccc(Cl)cc1)c1ccc(Cl)cc1	ACHN	cell growth or viability	–	–	GI50	3710 nM
O=C1OCC2=C1C(c1cccc(Br)c1)C1=C(N2)C(=O)c2ccccc2C1=O (stereo not shown)	SK-LU-1 cells	PI flow cytometry	0.16 µM, 24 h	–	cells in S phase	21.6%
COc1ccc([C@@H]2CC(=O)c3c(O)cc(O[C@@H]4O[C@H](CO[C@@H]5O[C@@H](C)[C@H](O)[C@@H](O)[C@H]5O)[C@@H](O[C@H]5O[C@H](CO)[C@@H](O)[C@H](O)[C@H]5O)[C@H](O)[C@H]4O)cc3O2)cc1O	MRC5	trypan blue exclusion	50 µg/mL, 24 h	–	cell count	10400 ± 598
CCOC(=O)c1csc2nc(-c3cccc(NC(=O)c4cc5cc(NC(=O)C(C)Cl)ccc5n4Cc4ccc(C(F)(F)F)cc4)c3)cn12 (stereo not shown)	RAW264.7	–	10 µM, with: LPS	baseline: control	intracellular ROS level	increased
COc1cc2c(OC3OCC(OC)C(OC)C3OC(=O)c3ccc(Br)cc3)c3c(c(-c4ccc5c(c4)OCO5)c2cc1OC)C(=O)OC3 (stereo not shown)	CAL-27	western blot, refers to: N-cadherin	concentration not given, 36 h	baseline: DMSO	protein level	decreased
CCOC(=O)c1nc2cc(Cl)c(Cl)cc2nc1N1CCN(C(=O)Nc2ccc(N3CCNCC3)cc2)CC1	RAW264.7	qRT-PCR	concentration not given, with: LPS	baseline: LPS alone	Tnfα mRNA level	increased
COc1cc(CNC(=O)C[C@H](C)CCC=C(C)C)ccc1OCc1cn(-c2cccc(Cl)c2)nn1	EKVX	SRB	10 µM, 48 h	–	growth percent	51.2%
CC1(C)OC(=O)C[C@H](O)[C@]2(C)[C@H]3CC[C@@]4(C)[C@H](c5ccoc5)OC(=O)[C@H]5O[C@]54[C@]3(C)C(=O)C[C@@H]12	COLO 320 (ABCB1-overexpressing, multidrug-resistant)	cell growth	200 µM starting, CI at ED50, with: doxorubicin, ratio 23.2:1	–	combination index	1.18
COc1ccc(C2=Nn3c(NN=C4C(=O)N(C)c5ccc(Br)cc54)nnc3SC2)cc1	ACHN	cell growth or viability, SRB	10 µM	–	inhibition	17%
[Cl][Pd-2]1([Cl])[N+](=Cc2ccc[nH]2)Cc2cccc[n+]21	Caco-2	MTT	100 µg/mL, 24 h	–	viability reduction	> 80%
Cc1ccc(C(C)C)cc1.O=C([N-]c1nc2ccccc2s1)c1cnccn1.[Cl-].[Ru+2]	Caco-2	cytotoxicity, MTT	–	baseline: KMST-6 over Caco-2	selectivity index	> 2
O=Cc1c(O)ccc2ccccc12	HUVEC	RNA sequencing, refers to: FAM129A	75 µM, 24 h	baseline: DMSO	log2 fold change	3.81
Cc1ccc(S(=O)(=O)Nc2ccc(O)c3ccccc23)c(C)c1	PANC-1 RFP-GFP-LC3B	–	10 µM, 24 h	–	autolysosomes per cell	decreased
COc1ccc2c(c1)CCN(c1cccc(-c3nc4ccc(N5CCN(C)CC5)cc4[nH]3)c1)C2	HT-22	protection from ferroptosis, CCK-8 viability	24 h, with: 1 µM erastin	–	EC50	1010 nM
COc1cc(CNC(=O)C[C@H](C)CCC=C(C)C)ccc1OCc1cn(-c2ccc(F)cc2)nn1	Hs-578T breast cancer cells	SRB	10 µM, 48 h	–	growth percent	33.7%
CC(C)Cc1ccc(C(C)C(=O)N/N=C/c2ccc(OCC(=O)N/N=C/c3c(O)ccc4ccccc34)cc2)cc1 (stereo not shown)	U87 MG	MTT	40 µM, 48 h	–	viability	100%
COc1cc(CNC(=O)C[C@H](C)CCC=C(C)C)ccc1OCc1cn(-c2ccc([N+](=O)[O-])cc2)nn1	T47D breast cancer cells	SRB	10 µM, 48 h	–	growth percent	46.1%
CC(C)C(=O)Cc1c(OCC(O)C(C)(C)O)ccc2ccc(=O)oc12 (stereo not shown)	COLO 320 (ABCB1-overexpressing, multidrug-resistant)	cell growth	200 µM starting, CI at ED50, with: doxorubicin, ratio 23.2:1	–	combination index	0.86
CC(C)(C)C(=O)Nc1ccc2[nH]c(CN3CCC(N(CCCN4CCOCC4)CC4OC(n5cnc6c(N)ncnc65)C(O)C4O)CC3)nc2c1 (stereo not shown)	H460 R231Q cells	colony formation	5 µM	–	inhibition	77.8%

Excerpt of the above:
Structure (SMILES)	cell line	assay	conditions	how to read	endpoint	value
COc1cc(CNC(=O)C[C@H](C)CCC=C(C)C)ccc1OCc1cn(-c2cccc(C(F)(F)F)c2)nn1	T47D breast cancer cells	SRB	10 µM, 48 h	–	growth percent	32.4%
CC(C)=CCc1c(OCC2OC2(C)C)ccc2ccc(=O)oc12 (stereo not shown)	COLO 320 (ABCB1-overexpressing, multidrug-resistant)	cell growth	150 µM starting, CI at ED50, with: doxorubicin, ratio 278.72:1	–	combination index	0.64
CN1CCc2cc(Nc3ncc(C(F)(F)F)c(NCc4cc[nH]n4)n3)ccc2C1	GL261	annexin V/PI	concentration not given	–	apoptotic cells	59.4%
CC(=O)OC[C@H]1O[C@@H](Sc2sc(C(=O)c3ccc(Br)cc3)c(N)c2-c2nc3ccccc3s2)[C@H](OC(C)=O)[C@@H](OC(C)=O)[C@@H]1OC(C)=O	OVCAR-5	SRB	10 µM, 48 h	baseline: untreated	growth	65.7%
CC(C)Cc1ccc(C(C)C(=O)NN=Cc2ccc(OCC(=O)NN=Cc3cccc([N+](=O)[O-])c3)cc2)cc1 (stereo not shown)	U87 MG	MTT	100 µM, 48 h	–	viability	62.2%
O=[N+]([O-])c1c(Nc2cc(F)cc(Cl)c2)ccc2nonc12	Hep3B	refers to: HIF1A	1 or 10 µM	–	mRNA level	no effect
CC(C)(C)C(=O)Nc1ccc2[nH]c(CN3CCC(N(CCCN4CCOCC4)CC4OC(n5cnc6c(N)ncnc65)C(O)C4O)CC3)nc2c1 (stereo not shown)	H460 R231Q cells	colony formation	5 µM	–	inhibition	77.8%
